Measured values gathered from unrelated publications.
Each numbered part is a random draw from the data of one study; scales do not carry over between parts. Values joined by “and” are separate records of one study, mostly repeats; a detail may differ. Converted amounts (≈) assume the structure as drawn.
UniProt P41143, sequence (whole entry, looked up): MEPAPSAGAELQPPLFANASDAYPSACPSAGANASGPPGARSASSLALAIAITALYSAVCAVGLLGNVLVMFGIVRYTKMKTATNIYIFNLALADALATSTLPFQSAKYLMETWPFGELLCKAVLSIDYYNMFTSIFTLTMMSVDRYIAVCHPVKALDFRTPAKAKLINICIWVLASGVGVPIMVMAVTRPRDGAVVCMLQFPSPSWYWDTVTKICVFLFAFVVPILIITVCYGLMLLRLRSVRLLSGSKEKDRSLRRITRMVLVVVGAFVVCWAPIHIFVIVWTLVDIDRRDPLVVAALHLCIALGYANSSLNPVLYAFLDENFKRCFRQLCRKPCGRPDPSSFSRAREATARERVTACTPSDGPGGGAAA

Series 1
SMILES: CC(C)(C)n1nc(-c2ccc(Cl)cc2)c2c(N)ncnc21
Cell line: L929
Observed: necroptosis protection
Technique: CCK-8
Added: TNF-α-induced
concentration | viability [%]
5 µM | 66
0.007 µM | 14.3
1.25 µM | 56.5

Series 2
SMILES: N=C(N)NCCCCCN1CC[C@]23c4c5ccc(O)c4O[C@H]2c2nc4ccccc4cc2C[C@@]3(O)[C@H]1C5
Cells: human cells
target | EC50 [nM]
Delta-type opioid receptor, with Gi3 (OPRD1, Homo sapiens, UniProt P41143) | 4.25
Delta-type opioid receptor, with Gz (OPRD1, Homo sapiens, UniProt P41143) | 1.28
Delta-type opioid receptor, with GoA (OPRD1, Homo sapiens, UniProt P41143) | 3.47
Delta-type opioid receptor, with GoB (OPRD1, Homo sapiens, UniProt P41143) | 1.39

Series 3
SMILES: Cn1cc(-c2cccc(CN3CCC4(CC3)COc3c4ccc4c3CN([C@H]3CCC(=O)NC3=O)C4=O)c2)cn1
observed | species | sample | route | dose | half-life
 | cynomolgus monkey |  | intravenous | 1 mg/kg | 9.35 h and 7.96 h and 9.24 h
 | rat | plasma | intravenous | 1.02 mg/kg | 1.94 h
 | rat |  | oral | 3 mg/kg | 1.96 h and 3.24 h and 2.69 h
metabolic stability | monkey | liver microsomes |  |  | 0.607 h
 |  | human plasma |  |  | 8.25 h
 |  | human liver microsomes |  |  | > 2 h
 | cynomolgus monkey | plasma | intravenous | 1 mg/kg | 8.85 h
 |  | monkey plasma |  |  | 24.8 h
 | rat |  | intravenous | 1 mg/kg | 2.03 h and 1.96 h and 1.82 h
 | cynomolgus monkey |  | oral | 3 mg/kg | 11 h and 10.3 h and 8.74 h

Other studies, line by line
Compound | target or system | assay | system | conditions | endpoint | value
CCCCC[C@@H](O)CC(=O)N[C@@H]1C(=O)N[C@H](CCCNC(=N)N)C(=O)N[C@@H](CO)C(=O)NCC(=O)N(C)[C@H](Cc2ccccc2)C(=O)N[C@@H](CC(C)C)C(=O)N[C@H](CCCNC(=N)N)C(=O)N[C@@H](CO)C(=O)N[C@H]([C@H](C)O)C(=O)N[C@H](Cc2c[nH]c3ccccc23)C(=O)N[C@@H]([C@@H](C)CC)C(=O)NCC(=O)O[C@@H]1C | Escherichia coli | microbial growth |  | 16 h | MIC | > 64 µg/mL
CCCCC[C@@H](O)CC(=O)N[C@H]1COC(=O)[C@H](CO)NC(=O)[C@H](Cc2ccccc2)NC(=O)[C@@H](Cc2c[nH]c3ccccc23)NC(=O)[C@@H](C(C)O)NC(=O)[C@H](CC(N)=O)NC(=O)[C@@H](C(C)C)NC(=O)[C@H](CC(C)C)NC(=O)[C@@H](Cc2ccc(O)cc2)N(C)C(=O)CNC(=O)[C@H](CO)NC(=O)[C@@H](CC(N)=O)NC1=O (some centres unmarked) |  |  | mouse, S. aureus infection | subcutaneous, 10 mg/kg, day 5 | survival | 60%
CCCCC[C@@H](O)CC(=O)N[C@@H]1C(=O)N[C@H](CCCNC(=N)N)C(=O)N[C@@H](CO)C(=O)NCC(=O)N(C)[C@H](Cc2ccccc2)C(=O)N[C@@H](CC(C)C)C(=O)N[C@H](CCCNC(=N)N)C(=O)N[C@@H](CCC(=O)O)C(=O)N[C@H](CCC(N)=O)C(=O)N[C@H](Cc2c[nH]c3ccccc23)C(=O)N[C@@H]([C@@H](C)CC)C(=O)N[C@@H]([C@@H](C)O)C(=O)O[C@@H]1C | Escherichia coli | microbial growth | BAS849 | 16 h | MIC | 8 µg/mL (≈ 4.9 µM)

Excerpt of the above (other studies, line by line):
Compound | target or system | assay | system | conditions | endpoint | value
CCCCC[C@@H](O)CC(=O)N[C@@H]1C(=O)N[C@H](CCCNC(=N)N)C(=O)N[C@@H](CO)C(=O)NCC(=O)N(C)[C@H](Cc2ccccc2)C(=O)N[C@@H](CC(C)C)C(=O)N[C@H](CCCNC(=N)N)C(=O)N[C@@H](CO)C(=O)N[C@H]([C@H](C)O)C(=O)N[C@H](Cc2c[nH]c3ccccc23)C(=O)N[C@@H]([C@@H](C)CC)C(=O)NCC(=O)O[C@@H]1C | Escherichia coli | microbial growth |  | 16 h | MIC | > 64 µg/mL
CCCCC[C@@H](O)CC(=O)N[C@H]1COC(=O)[C@H](CO)NC(=O)[C@H](Cc2ccccc2)NC(=O)[C@@H](Cc2c[nH]c3ccccc23)NC(=O)[C@@H](C(C)O)NC(=O)[C@H](CC(N)=O)NC(=O)[C@@H](C(C)C)NC(=O)[C@H](CC(C)C)NC(=O)[C@@H](Cc2ccc(O)cc2)N(C)C(=O)CNC(=O)[C@H](CO)NC(=O)[C@@H](CC(N)=O)NC1=O (some centres unmarked) |  |  | mouse, S. aureus infection | subcutaneous, 10 mg/kg, day 5 | survival | 60%
CCCCC[C@@H](O)CC(=O)N[C@@H]1C(=O)N[C@H](CCCNC(=N)N)C(=O)N[C@@H](CO)C(=O)NCC(=O)N(C)[C@H](Cc2ccccc2)C(=O)N[C@@H](CC(C)C)C(=O)N[C@H](CCCNC(=N)N)C(=O)N[C@@H](CCC(=O)O)C(=O)N[C@H](CCC(N)=O)C(=O)N[C@H](Cc2c[nH]c3ccccc23)C(=O)N[C@@H]([C@@H](C)CC)C(=O)N[C@@H]([C@@H](C)O)C(=O)O[C@@H]1C | Escherichia coli | microbial growth | BAS849 | 16 h | MIC | 8 µg/mL (≈ 4.9 µM)
